{"data": "Results collected from several papers", "note": "Each line is one published result; not all experiments were run side by side. Several values in a cell are separate wells, animals, samples, runs or records."}
{"SMILES": "O=C(N1CCc2ccccc21)n1ccnn1", "organism": "Arabidopsis thaliana", "system": "wild type, seedlings", "conditions": "30 µM, continuous red light, together with: 0.3 µM karrikin KAR2", "measurement": "hypocotyl length", "value": "2.26 mm"}
{"SMILES": "CC(=O)NC[C@H]1CN(c2ccc(N3CCOCC3)c(F)c2)C(=O)O1", "organism": "Enterococcus faecium", "system": "NR-31954", "measurement": "MIC", "value": "2.96 µM"}
{"SMILES": "CC(=O)NC[C@H]1CN(c2ccc(N3CCOCC3)c(F)c2)C(=O)O1", "organism": "Enterococcus faecium", "assay": "agar dilution", "system": "vancomycin-susceptible, 64 isolates", "measurement": "MIC50", "value": "1 µg/mL"}
{"SMILES": "C[C@@H](O)[C@H]1C(=O)N2C(C(=O)O)=C(SCCN=CN)C[C@H]12", "organism": "Acinetobacter baumannii", "system": "0403, female ICR mice, peritonitis, peritoneal fluid", "conditions": "dose not given", "measurement": "bacterial load", "value": "3.6 log CFU and 3.98 log CFU and 3.48 log CFU and 3.37 log CFU and 4.34 log CFU and 3 log CFU"}
{"SMILES": "CN[C@H](CC(C)C)C(=O)N[C@H]1C(=O)N[C@@H](CC(N)=O)C(=O)N[C@H]2C(=O)N[C@H]3C(=O)N[C@H](C(=O)N[C@H](C(=O)O)c4cc(O)cc(O)c4-c4cc3ccc4O)[C@H](O)c3ccc(c(Cl)c3)Oc3cc2cc(c3O[C@@H]2O[C@H](CO)[C@@H](O)[C@H](O)[C@H]2O[C@H]2C[C@](C)(N)[C@H](O)[C@H](C)O2)Oc2ccc(cc2Cl)[C@H]1O", "organism": "Streptococcus agalactiae", "system": "25 clinical isolates", "measurement": "MIC50", "value": "0.5 µg/mL"}
{"SMILES": "CC(C)n1ncc2c(C(=O)NCC3(C)CNC3)cc(C3CC3)nc21", "organism": "Enterovirus D68", "assay": "viral replication", "system": "RD, US/MO/14-18947", "conditions": "10 nM", "measurement": "plaque reduction", "value": "0%"}
{"SMILES": "C=C[C@]1(C)C[C@@H](OC(=O)CSCCN(CC)CC)[C@]2(C)[C@H](C)CC[C@]3(CCC(=O)[C@H]32)[C@@H](C)[C@@H]1O", "organism": "Mycoplasma gallisepticum", "system": "infected chickens, lung", "conditions": "oral, 40 mg/kg", "how to read": "relative to: 0 h", "measurement": "mycoplasma load reduction", "value": "2.81 log10 CFU/mL"}
{"SMILES": "Cc1ccc(CCC(=O)Nc2nnc(S(N)(=O)=O)s2)cc1", "organism": "Enterococcus faecium", "system": "NR-31954", "measurement": "MIC", "value": "0.766 µM"}
{"SMILES": "COC(=O)[C@@H](CCSC)NCc1cc2ccccc2nc1SC", "organism": "Pseudomonas aeruginosa", "conditions": "2 µg/mL, without pentamidine", "how to read": "relative to: control", "measurement": "growth", "value": "95.1%"}
